# Experimental data from different studies.
# Values joined by “and” are separate records of one study, mostly repeats; a detail may differ. ± marks the error that the study gave.
Structure (SMILES),test,test system,conditions,scale,endpoint,value
C[C@H]1C[C@H]2CSC(N)=N[C@@]2(c2nc(NC(=O)c3ccc(OC(F)F)cn3)cs2)CO1,measured: Aβx-40,"healthy adults, plasma","400 mg single dose, 48 h post-dose",reference: placebo,percent change from baseline,-67%
C[C@H](Oc1ccc(Br)cc1-c1ccon1)C(=O)O,muscle velocity recovery cycles,"human, tibialis anterior muscle","400 mg once daily, multiple doses, multiple ascending dose",reference: placebo,latency,0.07 ms
COc1ccccc1[C@H](Cn1c(=O)n(C(C)(C)C(=O)O)c(=O)c2c(C)c(-c3ncco3)sc21)OC1CCOCC1,,human,"20 mg, post-treatment",,blood VLDL level,23.8 ± 5.33 mg/dL
COc1ncc(-c2nc3c(n2C(C)C)[C@H](c2ccc(Cl)cc2)N(c2cc(Cl)cn(C)c2=O)C3=O)c(OC)n1,International Working Group criteria,human acute myeloid leukemia patients,"dose not given, response CR, all patients",,best overall response,5.5%
O=C(COc1ccc(Cl)cc1)NC12CC(c3nnc([C@H]4C[C@@H](OC(F)(F)F)C4)o3)(C1)C2,,"healthy human, PBMC","oral, 800 mg single dose, day 1, 4 h post-dose, median, with: sodium arsenite ex vivo",reference: baseline,CHAC1 mRNA change,-69.3%
CCN(Cc1nc2c(N)nc3cc(-c4cc[nH]n4)ccc3c2[nH]1)C(C)=O,"immunohistochemistry, measured: NK cells","patients with advanced solid tumours, injected tumour lesions","dose not given, monotherapy",reference: baseline,mean fold change,1.5
CN(C)C(=O)Oc1cccc([N+](C)(C)C)c1,neuromuscular block reversal,rat,"dose not given, 3 (unit not given), with: cisatracurium",reference: T1 twitch,train-of-four ratio,4.94
OC[C@H]1O[C@@H](c2ccc(Cl)c(Cc3ccc(O[C@H]4CCOC4)cc3)c2)[C@H](O)[C@@H](O)[C@@H]1O,,"healthy Korean men, blood","oral, dose not given, 2 h, steady state OGTT",,glucose AUEC,368 ± 41.9 mg·h/dL
OC(CCN1CCCCC1)(c1ccccc1)C1CC2C=CC1C2 (stereo not drawn),resting-state EEG,healthy elderly humans,"oral, 4 mg, eyes closed, LS mean",,"EEG gamma power, O2 Pz",0.9 µV²
CCCCC1(CCCC)CN(c2ccccc2)c2cc(SC)c(OCC(=O)N[C@@H](C(=O)NCC(=O)O)c3ccccc3)cc2S(=O)(=O)C1,measured: 7α-hydroxy-4-cholesten-3-one,"human, plasma","20 mg once daily, day 1",,plasma C4,13.9 ng/mL
CN(C(=O)n1cnc(-c2ccc[n+]([O-])c2)c1)C1CCCCC1,measured: PEA,"human, plasma",100 mg single dose,,AUC(0-t),385 ng·h/mL
O=C1CCc2ccc(OCCCCN3CCN(c4cccc(Cl)c4Cl)CC3)cc2N1,measured: stopping or switching,patients CYP2D6 extreme phenotypes,"dose not given, 6 months",reference: IM versus NM,hazard ratio,2.17
Cc1n[nH]c2ccc(-c3cc(OC[C@@H](N)Cc4ccccc4)cnc3-c3ccoc3)cc12,"kinase binding, competitor, MIB/MS competition, measured: HRK1",Candida albicans cell lysate,100 nM,reference: DMSO,log2 fold change,-0.0934
CC(C)[C@H](C(=O)Nc1ccc(C(=O)NO)cc1)c1ccccc1,volumetric MRI,"human, right meningioma","dose not given, day 133",reference: baseline,tumour volume change,104%
Cc1ccc([C@@H]2O[C@H](CO)[C@@H](O)[C@H](O)[C@H]2O)cc1Cc1ccc(-c2ccc(F)cc2)s1,,Japanese type 2 diabetes patients,"25 mg, day 1",reference: day 0,"change, mean 24 h, plasma glucose",-25 mg/dL
CC(C)NCC(O)c1ccc(O)c(O)c1 (stereo not drawn),,"ventricular cardiomyocytes, C57BL/6 mouse","dose not given, 0.444 s",,sarcomere length,1.71 µm
N#Cc1ccc2c(c1)[C@H]1CCCN(C(=O)c3ccc4[nH]cnc4c3)[C@H]1C2,measured: ACTH,"human, Phase II trial","oral, 20 mg once daily, HPA axis, mean",,change from baseline,4.3 pmol/L
C[C@@H]1C[C@H]2O[C@@]3(O[C@@H]2C(C)(C)O)[C@H](O)[C@@]2(C)[C@@H]4CC[C@H]5C(C)(C)[C@@H](O[C@@H]6OC[C@@H](O)[C@H](O)[C@H]6O)CC[C@@]56C[C@@]46CC[C@]2(C)[C@@H]13,"agonist, qPCR, measured: Shp","medaka larvae, water exposure","10 µM, 48 h",reference: maximal induction by reference agonist,mRNA induction,73.8%
O=C(O)CNC(=O)Cc1ccccc1,,"ventricular cardiomyocytes, C57BL/6 mouse","dose not given, 0.26 s",,sarcomere length,1.66 µm
C[C@@H](O)CCOC(=O)C[C@@H](C)O,measured: C6-DC/C8-OH acylcarnitine,"human, plasma","60 min, log2-transformed values",,metabolite level,-3.5 ± 1.08 µmol/L
O=P(O)(O)C(Cl)(Cl)P(=O)(O)O,,"Mus musculus, subarachnoid haemorrhage, meninges","concentration not given, day 1",reference: total area,Iba1-positive area,0.69% and 1.12% and 0.65%
CCO[C@H]1CCN(Cc2c(OC)cc(C)c3[nH]ccc23)[C@H](c2ccc(C(=O)O)cc2)C1,,"PNH patients, blood","oral, 25 mg then 100 mg, week 2, mean percent change",reference: baseline,C3d-positive type III RBCs,-53.5%
N#Cc1ccc2c(-c3ccncc3)c(-c3ccc(F)cc3)nn2c1,"kinase binding, competitor, MIB/MS competition, measured: ATG1",Candida albicans cell lysate,1 µM,reference: DMSO,log2 fold change,-0.352
CC[C@H](C)[C@H](NC(=O)[C@H](C)NC(=O)CNC(=O)[C@H](Cc1ccccc1)NC(=O)[C@H](CC(N)=O)NC(=O)[C@H](CC(N)=O)NC(=O)[C@H](CO)NC(=O)[C@H](CO)NC(=O)[C@H](Cc1c[nH]cn1)NC(=O)[C@@H](NC(=O)[C@H](CC(C)C)NC(=O)[C@H](Cc1ccccc1)NC(=O)[C@H](CC(N)=O)NC(=O)[C@H](C)NC(=O)[C@H](CC(C)C)NC(=O)[C@H](CCCNC(=N)N)NC(=O)[C@H](CCC(N)=O)NC(=O)[C@@H](NC(=O)[C@H](C)NC(=O)[C@@H]1CSSC[C@H](NC(=O)[C@@H](N)CCCCN)C(=O)N[C@@H](CC(N)=O)C(=O)N[C@@H]([C@@H](C)O)C(=O)N[C@@H](C)C(=O)N[C@@H]([C@@H](C)O)C(=O)N1)[C@@H](C)O)C(C)C)C(=O)N[C@@H](CC(C)C)C(=O)N[C@@H](CO)C(=O)N[C@@H](CO)C(=O)N[C@H](C(=O)N[C@@H](CC(N)=O)C(=O)N[C@H](C(=O)NCC(=O)N[C@@H](CO)C(=O)N[C@@H](CC(N)=O)C(=O)N[C@H](C(=O)N[C@@H](Cc1ccc(O)cc1)C(N)=O)[C@@H](C)O)C(C)C)[C@@H](C)O,,isolated mouse islets,"10 µM, 24 h",reference: high over low glucose,glucose stimulation index,1.4 ± 0.2
CN[C@@H]1COc2c(S(=O)(=O)NC(=O)Nc3c4c(cc5c3CCC5)CCC4)cnn2C1,measured: IL-18,"human participants, whole blood ex vivo","900 mg twice daily, multiple doses, 96 h, IL-18, circulating, adjusted for, with: LPS/ATP",reference: baseline,inhibition,99.6%
NC(=O)c1cnc2[nH]ccc2c1N[C@@H]1[C@@H]2CC3C[C@H]1C[C@@](O)(C3)C2,"CD4+ naive T cells, flow cytometry","Japanese humans, peripheral blood",20 mg single dose,reference: baseline,percent change,0.73%
N#Cc1ccn2c(-c3ccncc3)c(-c3ccc(F)cc3)nc2c1,"kinase binding, competitor, MIB/MS competition, measured: RIM11",Candida albicans cell lysate,10 µM,reference: DMSO,log2 fold change,0.0166
CC1(C)CCC(CN2CCN(c3ccc(C(=O)NS(=O)(=O)c4ccc(NCC5CCOCC5)c([N+](=O)[O-])c4)c(Oc4cnc5[nH]ccc5c4)c3)CC2)=C(c2ccc(Cl)cc2)C1,cell kill,"primary neoplastic T lymphocytes, dog 8","24 h, multicentric intermediate-large T-cell lymphoma",,EC50,10 nM
COC[C@@H](c1ccc(C(F)(F)F)cc1)N1CCN(C2(C)CCN(C(=O)c3c(C)ncnc3C)CC2)C[C@@H]1C,,"HIV-1 infected patients, plasma","10 mg, week 16, with optimized background regimen",reference: baseline,change in HIV-1 RNA,-2.31 log10 copies/mL
Nc1nc2cc(-c3ccc4ncc(C(=O)N5CCOCC5)n4c3)ccc2o1,RECIST v1.1,advanced solid tumour patients,"dose not given, all schedules",,clinical benefit rate,34%
O=C1Nc2cc3[nH]nc(-c4ccncc4)c3cc2CN1Cc1ccccc1,RECIST v1.1,"human, relapsed or refractory advanced solid tumours","intravenous, 4.8 mg/kg, pooled schedules",,"stable disease, best response",0%
C[C@]12CC[C@@H]3c4ccc(O)cc4CC[C@H]3[C@@H]1CC[C@@H]2O,"RT-qPCR, measured: CO",Arabidopsis thaliana ING1:FLAG seedlings,"dose not given, 4 h, unit not given",reference: TUB2,mRNA level,0.0047 and 0.0059
COc1ccc(-c2cncc(N[C@@H](C)c3cccc(NC(=O)c4cncc(C)c4)c3)n2)cc1OC,measured: rno-miR-25-3p,"rat SU5416/hypoxia model, lung","dose not given, unit not given",reference: SU5416/hypoxia vehicle,delta delta Ct,-0.594
NCC(=O)Nc1cncc(-c2nn3c(=O)cc(N4CCNCC4)nc3s2)c1,"ADP-induced platelet aggregation, light transmission aggregometry","human stable CAD patients on aspirin, platelets ex vivo","0.075 mg/kg, 15 min post dose, with: 20 µM ADP",reference: placebo difference,inhibition of platelet aggregation,74.1%
CN(C)C(=N)N=C(N)N,,ZDF rat,"100 mg/kg/day, 6 weeks",,HbA1c at end of treatment,9.07 ± 0.1%
Cc1c(NC(=O)c2cccnc2)c(=O)n(-c2ccccc2)n1C,histology,"Dmd C3333Y mice, gastrocnemius",dose not given,,necrotic area,4.1% and 5.7% and 5.1% and 6.2% and 2.6%

# A few entries again:
Structure (SMILES),test,test system,conditions,scale,endpoint,value
COc1ccccc1[C@H](Cn1c(=O)n(C(C)(C)C(=O)O)c(=O)c2c(C)c(-c3ncco3)sc21)OC1CCOCC1,,human,"20 mg, post-treatment",,blood VLDL level,23.8 ± 5.33 mg/dL
COc1ncc(-c2nc3c(n2C(C)C)[C@H](c2ccc(Cl)cc2)N(c2cc(Cl)cn(C)c2=O)C3=O)c(OC)n1,International Working Group criteria,human acute myeloid leukemia patients,"dose not given, response CR, all patients",,best overall response,5.5%
